Measured values from different studies.
Numbered parts are unrelated; each lists some results of a single study. Positions count from the first letter of the parent shown.

Block 1 — technique: RNA Bind-n-Seq; form: RNA; sample: in vitro; tested at: 365 nM; baseline: no-protein control; reading: higher = stronger binding
Target: RNA binding protein fox-1 homolog 2, RRM domain, GST-SBP tag (RBFOX2, Homo sapiens, UniProt O43251-10, residues 100-194)
Notes: natural RNA segment, single round, ends assumed
All sequences stand within: GGGAGUUCUACAGUCCGACGAUC … UGGAAUUCUCGGGUGCCAA
Residues (chain): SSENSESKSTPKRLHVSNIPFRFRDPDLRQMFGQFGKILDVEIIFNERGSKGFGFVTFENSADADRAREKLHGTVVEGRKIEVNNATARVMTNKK
| Sequence | RBNS enrichment (R) |
| --- | --- |
| ACACCUCUGGUUUUUCAAUACCAAUUACAUGGAACUUUUCUGUAAUGGGUACAAUGAAGAAGUUUCUAAAAACACACACAAAGCACAUUGGGCCAACUAUUUAGUAAGCC | 0.549 |
| CUGAUUUUGCCACAACCUGGAUAUUGAAGCUAUCCAAGCUUUUGAAAUAAAAUUUAAAAACCCCCAAGCCUGGGUGAGUGUGGGAUAUGCUGUGUGAGACCUCUUGCUCA | 0.704 |
| ACUUAAAAAAAAAAGUAGGGAGAUUAAAAAAAAAGAAAGAAAAUGCUUCCUUAUCUGGAAGCCUUUCUGGAUUAAUCCAGUGAUGGUCCCACCUUUAGUGUUUGAGCUUU | 0.461 |
| AAUGUUCACUUUCUGUUCUCCAGUGUCACUGUUCUGUUUCCACGGGAUGGAAAGCGCAUGGGCCUGUGUCCAUUGUAGAUUUCCUUCUAGAUUUCUGUGUACACACACUU | 0.337 |
| AAGUUGCGGUUUACAGCACCUGCUUAUAACAGGAAGGGGCUGUAGAGGGGCUCGGUGACCAAGGUAAACCACACGCGCAAACCGAGGCAGUCAUCUACAAAUAACCCAUC | 0.392 |
| GGAUGAGAAACAGGCAUCUCCCAGGCUCCAAGCCUAUUUGGAGGUGACACGGUUGAGUGCUUCUGGGCCGGAAUCCUUAUGGGAAAUCACGUCAAUAAAUUUUAAACGCU | 0.318 |
| AUAGGAGUUUGACAAAAUGAAUUGUGGUUAUAAAACGAAUUUGCUUUUUUGUUGUUUUGUUUUUCUUUUUUGGCCUAAGGAAGAAAGCUGUGAUAAAUUUCAAAUUUGCA | 1.37 |
| CAAUUUGUUAUAAGUUGGUUUUCAACAAAGAAAUUUAGCAGCCAAGUAAGGUUUCAAGGGAAUAUUAACUUGGUAUCAGGGCUACUUUUUUUUUUUUUUUUUUACUUGCA | 1.61 |

Block 2 — technique: protein-binding microarray; form: double-stranded DNA, one strand shown; sample: in vitro; tested at: 2200 nM top; notes: 60-bp whole probe; added: salmon DNA 0.4 mg/ml; baseline: random background probes; reading: higher = stronger binding; all sequences stand within: GCCTAGCAC … GTCTTGATTCGCTTGACGCTGCTG
Target: Interferon regulatory factor 7, full length, phosphomimetic (IRF7, Homo sapiens, UniProt Q92985, residues 1-503, S471D/S472D/S475D/S476D/S477D/S483D/S484D/S487D)
Sequence of UniProt Q92985 (whole entry, unmodified, looked up): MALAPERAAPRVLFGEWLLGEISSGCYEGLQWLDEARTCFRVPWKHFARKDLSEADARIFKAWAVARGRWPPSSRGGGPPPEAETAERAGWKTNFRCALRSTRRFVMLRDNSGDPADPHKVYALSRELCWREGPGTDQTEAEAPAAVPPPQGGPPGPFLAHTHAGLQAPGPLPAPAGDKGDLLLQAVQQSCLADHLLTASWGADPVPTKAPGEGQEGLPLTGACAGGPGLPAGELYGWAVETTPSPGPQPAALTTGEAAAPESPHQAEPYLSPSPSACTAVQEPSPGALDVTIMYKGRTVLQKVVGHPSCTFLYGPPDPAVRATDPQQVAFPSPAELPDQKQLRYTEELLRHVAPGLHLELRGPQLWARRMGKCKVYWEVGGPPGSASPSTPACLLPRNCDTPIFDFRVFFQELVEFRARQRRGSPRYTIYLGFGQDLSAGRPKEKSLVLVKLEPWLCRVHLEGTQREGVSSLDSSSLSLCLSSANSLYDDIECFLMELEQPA
| Sequence | fitted relative affinity |
| --- | --- |
| TCAACTCTTTATTTAAGACTGTGCTAG | 0.146 z-score |
| GACGATTCCCTTTTCCTGACGTGCTAG | 2.16 z-score |
| GACGCTTTCGGGTATCGAGACGTGCTA | 6.38 z-score |
| GACGGCATCGGGTTTCGGGACGTGCTA | 0.725 z-score |
| GACGGAGTGCTTCTCCTGACGTGCTAG | 0.519 z-score |
| TCAGTTTTCAGTTTCACACTGTGCTAG | 6.46 z-score |
| TTAGTTTTCGGGACTGGATTAGTGCTA | 3.44 z-score |
| TTAGGACTGTGTATCGGTTAGTGCTAG | 0.352 z-score |
| TCAGCTTTCCCGTCCAGACTGTGCTAG | 1.92 z-score |
| TTAGGTTTCGGGACTGCGTTAGTGCTA | 3.19 z-score |
| TTAGAGCTGGGGTATCGATTAGTGCTA | -0.298 z-score |
| GCGCTTCTCGAGTGCCGGCTGGTGCTA | 1.64 z-score |
| TTAGAAATGAGTTTCGATTAGTGCTAG | 3.2 z-score |
| TTAGGACTGGGGTCTGGGTTAGTGCTA | -0.853 z-score |
| CCACTTTCAGTTCTCCCTTTGTGCTAG | 10.8 z-score |
| TTAGGACTGGACTATGGGTTAGTGCTA | -0.526 z-score |
| GACGATCTCAGTATCGAAACGTGCTAG | 0.277 z-score |
| TGAGGTATCCTACTGCTTTAGTGCTAG | 0.282 z-score |
| TTAGGACTGGACTCTGGGTTAGTGCTA | -0.645 z-score |

Block 3 — technique: protein binding microarray; form: double-stranded DNA, one strand shown; sample: in vitro; tested at: not given; baseline: not given; reading: higher = stronger binding
Target: Histone acetyltransferase KAT6A, winged helix 1, GST fusion (KAT6A, Homo sapiens, UniProt Q92794, residues 1-85)
Notes: 8-mer, flanks averaged, mean of 2 arrays, mostly near background
Construct (chain): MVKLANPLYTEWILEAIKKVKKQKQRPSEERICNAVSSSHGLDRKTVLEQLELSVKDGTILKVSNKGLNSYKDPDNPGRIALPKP
| Sequence | E-score |
| --- | --- |
| AATAGCGT | 0.123 |
| AGACCGCC | 0.284 |
| ATCCACTG | -0.142 |
| AACACTAA | 0.0566 |
| ATGGCCCC | 0.074 |
| GCAACGCC | 0.0936 |
| AAGACGGT | -0.123 |
| CGCCTAAA | 0.134 |
| ATTGAGTC | -0.106 |
| GTTAGAAA | -0.118 |
| GGATGAAA | -0.0856 |
| CGGAGCCG | 0.422 |
| CCCTTTTC | -0.192 |
| AACGACTA | -0.0768 |
| CGCGACCC | 0.267 |
| CCAGTACC | -0.141 |
| GCTGGGGA | -0.171 |
| CGTCTCCA | 0.132 |
| CCAATACG | 0.0692 |
| CACTTGGC | -0.0269 |

Block 4 — target: CCND1, cyclin fold, Cln2 fusion (human); technique: yeast growth competition, sequencing; sample: yeast; notes: strong parent motif; baseline: not given; reading: higher = stronger binding
Starting sequence: E2F1 docking peptide (human); PPVKRRLDFETDH
| Change | normalised enrichment score |
| --- | --- |
| V3G | 0.525 |
| R6D | 0.0818 |
| R6I | 1.33 |
| K4I | 3.57 |
| R5V | 1.09 |
| R5C | 0.968 |
| D12S | 2.79 |
| R6G | 0.383 |
| L7H | -0.136 |
| F9P | -0.361 |
| K4D | 0.479 |
| P2N | 2.49 |
| D8L | 1.88 |
| D8S | 2.71 |
| D8G | 0.5 |
| R6N | 0.528 |
| K4V | 2.66 |
| R6E | 1.32 |
| T11A | 2.62 |
| K4E | 1.33 |
| R5F | 0.794 |
| D12Q | 2.82 |
| V3R | 0.00841 |
| V3H | 0.401 |
| F9G | -0.0549 |

For quick reference, copied from above (block 1):
| Sequence | RBNS enrichment (R) |
| --- | --- |
| ACACCUCUGGUUUUUCAAUACCAAUUACAUGGAACUUUUCUGUAAUGGGUACAAUGAAGAAGUUUCUAAAAACACACACAAAGCACAUUGGGCCAACUAUUUAGUAAGCC | 0.549 |
| AAUGUUCACUUUCUGUUCUCCAGUGUCACUGUUCUGUUUCCACGGGAUGGAAAGCGCAUGGGCCUGUGUCCAUUGUAGAUUUCCUUCUAGAUUUCUGUGUACACACACUU | 0.337 |
| AUAGGAGUUUGACAAAAUGAAUUGUGGUUAUAAAACGAAUUUGCUUUUUUGUUGUUUUGUUUUUCUUUUUUGGCCUAAGGAAGAAAGCUGUGAUAAAUUUCAAAUUUGCA | 1.37 |
| ACUUAAAAAAAAAAGUAGGGAGAUUAAAAAAAAAGAAAGAAAAUGCUUCCUUAUCUGGAAGCCUUUCUGGAUUAAUCCAGUGAUGGUCCCACCUUUAGUGUUUGAGCUUU | 0.461 |
| GGAUGAGAAACAGGCAUCUCCCAGGCUCCAAGCCUAUUUGGAGGUGACACGGUUGAGUGCUUCUGGGCCGGAAUCCUUAUGGGAAAUCACGUCAAUAAAUUUUAAACGCU | 0.318 |
| CAAUUUGUUAUAAGUUGGUUUUCAACAAAGAAAUUUAGCAGCCAAGUAAGGUUUCAAGGGAAUAUUAACUUGGUAUCAGGGCUACUUUUUUUUUUUUUUUUUUACUUGCA | 1.61 |
| CUGAUUUUGCCACAACCUGGAUAUUGAAGCUAUCCAAGCUUUUGAAAUAAAAUUUAAAAACCCCCAAGCCUGGGUGAGUGUGGGAUAUGCUGUGUGAGACCUCUUGCUCA | 0.704 |
| AAGUUGCGGUUUACAGCACCUGCUUAUAACAGGAAGGGGCUGUAGAGGGGCUCGGUGACCAAGGUAAACCACACGCGCAAACCGAGGCAGUCAUCUACAAAUAACCCAUC | 0.392 |
